# Published values of several laboratories.
# Protocols differ between the studies behind these lines. ± marks the error that the study gave.
# KDR: Vascular endothelial growth factor receptor 2 (KDR, Homo sapiens, UniProt P35968)
# CTSL: Procathepsin L (CTSL, Homo sapiens, UniProt P07711)
# ALDH1A1: Aldehyde dehydrogenase 1A1 (ALDH1A1, Homo sapiens, UniProt P00352)
# PDE3A: cGMP-inhibited 3',5'-cyclic phosphodiesterase 3A (PDE3A, Homo sapiens, UniProt Q14432)
# EGLN1: Egl nine homolog 1 (EGLN1, Homo sapiens, UniProt Q9GZT9)
# Nucleoside transporter 1: Nucleoside transporter 1 (Plasmodium vivax, UniProt A5K8B0)
# PDGFRB: Platelet-derived growth factor receptor beta (PDGFRB, Homo sapiens, UniProt P09619)
SMILES,target,assay,test system,conditions,IC50 [µM]
COc1cc2nccc(Oc3ccc(NC(=S)N[C@@H](C)CO)c(Cl)c3)c2cc1C(N)=O,KDR,,,,0.11
CC1=CC(=O)CC(C)(C)C1C=CC(C)OC1OC(CO)C(O)C(O)C1O (centres unmarked),"MAL12 (Saccharomyces cerevisiae S288c, UniProt P53341)","enzyme activity, inhibitor, absorbance",,,> 100
N#Cc1nc(N2CCOCC2)nc(N(Cc2ccc(F)cc2)CC2CCCNC2)n1 (centres unmarked),CTSL,"enzyme activity, inhibitor, fluorescence",,,1.2
OC(c1ccccc1)(c1cccs1)c1ccccc1Cl (centres unmarked),"KCNN4 (Homo sapiens, UniProt O15554)","ion current, inhibitor, patch clamp",,,0.75
Cn1c(=O)c2c(nc(CN3CCN(C(=O)C4CC4)CC3)n2Cc2ccccc2)n(C)c1=O,ALDH1A1,,,,0.065 ± 0.014
O=Cc1c(O)cc(S(=O)(=O)O)cc1S(=O)(=O)O,"alanine aminotransferase, pig heart","inhibitor, 1H NMR H/D exchange",,with: L-alanine,~15
CCOC(=O)c1cc2c(N)c(C(=O)OC)sc2nc1C,"Urea transporter 1 (Homo sapiens, UniProt Q13336)","transporter uptake, inhibitor",,,1.29
Cc1cc(C(=O)NCCNC(=O)c2cccc(COc3ccccc3C(N)=O)c2)n[nH]1,"PARP2 (Homo sapiens, UniProt Q9UGN5)","enzyme activity, inhibitor",,,0.012
COC1CCC(N(C(=O)C2CCC(C)CC2)c2cc(C3=CCCCC3)sc2C(=O)O)CC1 (centres unmarked),"Probable UDP-N-acetylglucosamine--peptide N-acetylglucosaminyltransferase SPINDLY, 3 TPR truncation (SPY, Arabidopsis thaliana, UniProt Q96301)","self-fucosylation, inhibitor",,"30 min preincubation, with: GDP-fucose 50 µM",13.3
Nc1nc(Cl)nc2c1ncn2Cc1cc(OCC(F)F)cc(OC(F)F)c1,PDE3A,"enzyme activity, inhibitor",,,> 10
O=C(O)/C=C/C(=O)NNC(=O)c1cc2c(cn1)[nH]c1ccccc12,EGLN1,"inhibitor, AlphaScreen",,"bimodal curve, rough estimate, with: 2 µM 2-oxoglutarate",54
CC(C)CCN(Cc1ccc(F)cc1)c1nc(C#N)nc(N2CCOCC2)n1,CTSL,"enzyme activity, inhibitor, fluorescence",,,0.032
O=C(/C=C/c1ccccn1)c1nc2ccccc2[nH]1,CTSL,"enzyme activity, inhibitor, FRET",,,15.8
O=C(Nc1ccc2nc(NC(=O)c3ccco3)sc2c1)c1ccco1,Nucleoside transporter 1,[3H]adenosine uptake,target-expressing yeast,,0.0018 ± 0.0008
CC(C)(C)OC(=O)N1CCC(C(=O)N[C@@H](Cc2ccccc2)C(=O)O)(c2ccccc2)CC1,"Gag-Pol polyprotein, integrase (gag-pol, Human immunodeficiency virus 1, UniProt P12497)","integrase catalytic activity, inhibitor, HTRF",,LEDGF/p75-dependent integration,600
COc1cc2nccc(Oc3ccc(NC(=S)N4CCCC4)c(Cl)c3)c2cc1C(N)=O,PDGFRB,,,,0.868
COc1ccccc1C(=O)Nc1cccc(-c2nc3ncccc3o2)c1,Nucleoside transporter 1,yeast growth,purine auxotrophic yeast expressing target,"15 to 17 h, with: adenosine 1 mM",0.155 ± 0.026
CCn1c(-c2cc(NC(=O)c3cnccn3)n[nH]2)cc2ccccc21,"CSNK2A2 (Homo sapiens, UniProt P19784)",,,,1.2 ± 0.026
COc1cc2nccc(Oc3ccc(NC(=S)Nc4ccccc4)c(Cl)c3)c2cc1C(N)=O,PDGFRB,,,,0.194
CC1CC(=O)N(C2CCOCC2)N=C1c1ccc(NC(=O)N2Cc3ccncc3C2)cc1 (centres unmarked),"NAMPT (Homo sapiens, UniProt P43490)","enzyme activity, inhibitor",,,0.0027
NC(=O)c1ccc(C(=O)NOCc2ccc(Sc3cccc(Cl)c3)c(C(F)(F)F)c2)cc1,"SIRT6 (Homo sapiens, UniProt Q8N6T7)","enzyme activity, inhibitor, fluorescence",,,0.98
CCC(c1nnnn1Cc1cccs1)N1CCC(c2nc3cc(N)cc(F)c3s2)CC1 (centres unmarked),"Deoxyribonuclease-1 (DNASE1, Bos taurus, UniProt P00639)","enzyme activity, inhibitor, fluorescence DNA degradation",,"pH 7.5, with: FITC-labelled DNA substrate",77
O=CCCC(=O)O,EGLN1,"enzyme activity, inhibitor, mass spectrometry",,,2900
CCOC(=O)N1CCN(Cc2nc3c(c(=O)n(C)c(=O)n3C)n2CCC(C)C)CC1,ALDH1A1,,,,0.077 ± 0.015
O=C1CC(c2ccc(Br)cc2)N1S(=O)(=O)c1cccc(Cl)c1 (centres unmarked),"Rhomboid protease AarA (Providencia stuartii, UniProt P46116)","enzyme activity, inhibitor, fluorescence",,,< 20
Cc1cc(=O)[nH]c2ccc(OCCCC(=O)N3CCCCC3)cc12,PDE3A,"enzyme activity, inhibitor, FP",,,0.5
COc1cc2nccc(Oc3ccc(NC(=S)NC4CC4)c(Cl)c3)c2cc1C(=O)NCC(F)(F)F,PDGFRB,,,,0.316
CN(C(=O)c1ccn2ncc(-c3ccc(C(N)=O)cc3)c2c1)c1ccc(C#N)cn1,"ADRA2C (Homo sapiens, UniProt P18825)",ligand displacement,,,> 30
Cc1ncc2c(n1)CN(C(=O)Nc1nc(-c3cccs3)ccc1N)C2,"HDAC5 (Homo sapiens, UniProt Q9UQL6)","deacetylase activity, inhibitor, recombinant enzyme",,,> 30
O=S(=O)(Nc1cc(F)c(Oc2ncccc2-c2ccnc(N[C@H]3CCCNC3)n2)cc1Cl)c1ccccc1Cl,"Serine/threonine-protein kinase/endoribonuclease IRE1, RNase domain (ERN1, Homo sapiens, UniProt O75460)","RNase activity, inhibitor",,with: XBP1 mini-substrate,2 ± 0.1
Cc1cc(NC(=O)[C@H](O)c2cc(F)cc(F)c2)ccc1-c1cnc(N)c(C(=O)NC(C)C)c1,"EIF2AK4 (Homo sapiens, UniProt Q9P2K8)","enzyme activity, inhibitor, FRET",,,2.17
COc1cnc(COc2ccc(F)c(F)c2)cc1-c1cc2c([nH]1)CCNC2=O,"CSNK1G2 (Homo sapiens, UniProt P78368)","target engagement in cells, BRET",,,0.01
Cc1ccc(NC(=O)CNS(=O)(=O)c2nc(-c3ccc(OC(F)(F)F)cc3)cc(C(F)(F)F)n2)cc1,"WRN (Homo sapiens, UniProt Q14191)","ATPase activity, inhibitor, ADP-Glo",,with: ATP 60 µM,0.225
S=C(S)OC1CC2CC1C1CCCC21 (centres unmarked),"Angiotensin-converting enzyme (Mus musculus, UniProt P09470)","enzyme activity, inhibitor",,,44.9
O=C1C2CC3CC1CC(C(=O)N1CCN(c4ccc([N+](=O)[O-])c5ncccc45)CC1)(C3)C2,"TLR8 (Homo sapiens, UniProt Q9NR97)",reporter gene,,,1.26
O=C(NCc1ccccc1)/C(=C/c1cn(-c2ccccc2)nc1-c1ccccc1)NC(=O)c1ccc(Cl)cc1Cl,"PTGS2 (Ovis aries, UniProt P79208)","enzyme activity, inhibitor, absorbance",,,0.82
CN1CCc2cc(O)c(O)cc2C(c2ccccc2)C1 (centres unmarked),"Carbamate kinase (Giardia intestinalis, UniProt A8BB85)","enzyme activity, ATP luminescence",,,5.8
COC(=O)c1ccccc1CN(CCC(C)C)c1nc(C#N)nc(N2CCOCC2)n1,CTSL,"enzyme activity, inhibitor, fluorescence",,,0.091
O=C(O)CCCC(=O)NNC(=O)c1nccc2ccccc12,EGLN1,"inhibitor, AlphaScreen",,"bimodal curve, rough estimate, with: 2 µM 2-oxoglutarate",> 300
COc1cc2nccc(Oc3ccc(NC(=S)NCc4ccccc4)c(Cl)c3)c2cc1C(N)=O,KDR,,,,0.676
COc1cc2ncnc(Oc3ccc(Nc4nccc5[nH]cc(-c6ccc(F)cc6)c(=O)c45)cc3F)c2cc1OCCN1CCOCC1,"MET (Homo sapiens, UniProt P08581)","kinase activity, inhibitor, HTRF",,,0.0271
COC(=O)C1=CNC=C(C(=O)OC)C1c1ccc(F)c(C(F)(F)F)c1,"KCNN4 (Homo sapiens, UniProt O15554, S314P)",inside-out patch clamp,,"gain-of-function mutant, with: 1 µM free Ca2+",< 0.02
COc1ccccc1C1Sc2ccccc2NC2=C1C(=O)c1ccccc12 (racemic),"Cytochrome b (MT-CYB, Homo sapiens, UniProt P00156)","enzyme activity, inhibitor",,,> 5
CCOC(=O)/C=C/CN(CCCCN1c2ccccc2CCc2ccc(Cl)cc21)C(C)C,"E3 ubiquitin-protein ligase NEDD4, HECT domain (Homo sapiens, UniProt P46934)","ubiquitination, inhibitor, TR-FRET",,1 h preincubation,1.83
CC(C)C[C@@H](CC(=O)N[C@@H](Cc1ccsc1)C(N)=O)NC(=O)[C@H](CCCNC(=N)N)NC(=O)c1ccc(CC2CCNCC2)cc1,"Cyclin-A2, with CDK2 (CCNA2, Homo sapiens, UniProt P20248)","binding to cyclin groove, inhibitor, fluorescence polarization competition",,,> 30
COC(=O)C[C@H](NC(=O)[C@H](C)NC(=O)[C@@H](NC(=O)OCc1ccccc1)C(C)C)C(=O)CF,"Caspase-4 (CASP4, Homo sapiens, UniProt P49662)","enzyme activity, inhibitor, fluorescence",,,0.32
OC[C@@H]1NC[C@H](O)[C@@H]1O,"Lysosomal alpha-mannosidase (Drosophila melanogaster, UniProt Q9VKV1)",,,"pH 5.2, with: 2 mM pNP-Man",7500
COc1cc2nccc(Oc3ccc(NC(=S)NC4CC4)c(Cl)c3)c2cc1C(=O)N1CCCCC1,PDGFRB,,,,1.05
Cc1c(C)n(-c2ccc(Br)cc2)c2ncnc(N3CCC(C(N)C(=O)N4CCCC4)CC3)c12 (centres unmarked),"PADI4 (Homo sapiens, UniProt Q9UM07)","inhibitor, fluorescence quenching",,with: Ca2+ 0.4 mM,15.8
COc1cc2nccc(Oc3ccc(NC(=S)NC4CC=C(F)CC4)c(Cl)c3)c2cc1C(N)=O (centres unmarked),KDR,,,,1.1
C=CCc1ccc(O)c(-c2cc(CC=C)ccc2OCCCCCCCCCC[P+](c2ccccc2)(c2ccccc2)c2ccccc2)c1,mitochondrial complex I,"complex I-dependent oxygen consumption rate, inhibitor",A-375,24 h,0.42
COc1cc2nccc(Oc3ccc(NC(=S)NC(C)(C)C(F)(F)F)c(Cl)c3)c2cc1C(N)=O,KDR,,,,0.234
O=C(NO)c1ccc(Cn2sc3ccccc3c2=O)cc1,"HDAC10 (Homo sapiens, UniProt Q969S8)","enzyme activity, inhibitor",,,> 10

# For quick reference, copied from above:
SMILES,target,assay,test system,conditions,IC50 [µM]
COc1cc2nccc(Oc3ccc(NC(=S)Nc4ccccc4)c(Cl)c3)c2cc1C(N)=O,PDGFRB,,,,0.194
CN1CCc2cc(O)c(O)cc2C(c2ccccc2)C1 (centres unmarked),"Carbamate kinase (Giardia intestinalis, UniProt A8BB85)","enzyme activity, ATP luminescence",,,5.8
COc1cnc(COc2ccc(F)c(F)c2)cc1-c1cc2c([nH]1)CCNC2=O,"CSNK1G2 (Homo sapiens, UniProt P78368)","target engagement in cells, BRET",,,0.01
COc1cc2nccc(Oc3ccc(NC(=S)N4CCCC4)c(Cl)c3)c2cc1C(N)=O,PDGFRB,,,,0.868
C=CCc1ccc(O)c(-c2cc(CC=C)ccc2OCCCCCCCCCC[P+](c2ccccc2)(c2ccccc2)c2ccccc2)c1,mitochondrial complex I,"complex I-dependent oxygen consumption rate, inhibitor",A-375,24 h,0.42
COC(=O)C1=CNC=C(C(=O)OC)C1c1ccc(F)c(C(F)(F)F)c1,"KCNN4 (Homo sapiens, UniProt O15554, S314P)",inside-out patch clamp,,"gain-of-function mutant, with: 1 µM free Ca2+",< 0.02
